Assay results pooled from the literature.
Technique: steady-state kinetics
B1: enzyme (Lacticaseibacillus rhamnosus, UniProt A0A7S7JIA0); chain MSEPLPRIKRYEDLGLGLFIHWGLYSQLAVGEWTEFIHHRSRSEYEKLIATFTANQFDAEAIAHAAKMMGAKYIVLTTKHHEGFFLYDTKGLSSFDVMHSPANRDLIAEFVAACRKEGLLPFFYVATYDWHSPLYEENFPAYLDYLKASVEVLCRHYGPVGGFWFDGNWNKKEADWQLPALYGMIRKYQPDAIIVNNTGLKNRGKVSDPEIDVVTYERRTPDEIYHGAPNAKYVAGEISMTLNQHWGIATNDLNYKSPAEVIETVAHARHIGANILVNIGLTGQGAIPASAKTYMALLGRWTTMAAPALYRGRPTAIVSGQGARDFVLHADAHDYLCVFDLKVVGNDNVVLGGEGVNPRSFVGIDRPIESVYWLDNEEYLSFTQDLHKRVLTVDATGYPYGSDWVVRIAQIDYKSENRTVKSD
B2: UGT1A6 (Homo sapiens, UniProt P19224); chain DKLLVVPQDGSHWLSMKDIVEVLSDRGHEIVVVVPEVNLLLKESKYYTRKIYPVPYDQEELKNRYQSFGNNHFAERSFLTAPQTEYRNNMIVIGLYFINCQSLLQDRDTLNFFKESKFDALFTDPALPCGVILAEYLGLPSVYLFRGFPCSLEHTFSRSPDPVSYIPRCYTKFSDHMTFSQRVANFLVNLLEPYLFYCLFSKYEELASAVLKRDVDIITLYQKVSVWLLRYDFVLEYPRPVMPNMVFIGGINCKKRKDLSQEFEAYINASGEHGIVVFSLGSMVSEIPEKKAMAIADALGKIPQTVLWRYTGTRPSNLANNTILVKWLPQNDLLGHPMTRAFITHAGSHGVYESICNGVPMVMMPLFGDQMDNAKRMETKGAGVTLNVLEMTSEDLENALKAVINDKSYKENIMRLSSLHKDRPVEPLDLAVFWVEFVMRHKGAPHLRPAAHDLTWYQYHSLDVIGFLLAVVLTVAFITFKCCAYGYRKCLGKKGRVKKAHKSKTH
B3: enzyme C74S (UniProt A0A0P0CH59); chain MRIALFSDIHANLPALEAVLANMETQQLDAIYCLGDLVGYAPWPNEVVAEIRKRRIPTIAGNYDEGVGLWSPNSGCAYKTDTEKDLGQQSIDFTNNVVTEETRKYLRMLPRQLRLTFMDGSKEENKIELLLVHGSPRKINEYLFEDRPEKSFLKMMEEANADLLFFGHTHKPYHRAMPYEHEGQTRYRHAINIGSVGKPKDGDPRTGYVVVELTPESSLTQKDSIKVEFIRVPYDVETAAQAVEASPLPNEFAQMLRTA
B4: enzyme (Cyanidioschyzon merolae, UniProt M1V8C6); chain EPPRDTAATSSHEFTHHVTEKAKDWSGSGTWLQSYIEQGPLAAAIPPQYAPSRSLSRWQAWGSYLFKELGLDGTLERDQNRIFRFYLPVFAWSLHVVNRLQRDERRKQHGVIIGLQCPQGGGKTTLTAALQKLFDLEQRRCVSLSIDDFYLTRREQEALARAFPENPLLGSRGNPGTHDISLALQVLNEVVAAPYPGEHAEVAVPRYDKSAFQGLGDRAPPEQWPLVSRPVDVVFLEGWCLGFRPLALHERPATMDPITLRHLMQVDRFLAEDFSRLYPLLDAFIVIALDGPKLSESLRIVYQWRLEAEQQMRAAGRPAMTDEQVYAFVDKFMPAYKAYLGDLYGGPPLTGNLSRELRVGIDETRSPTRLNPHSELVP
B5: enzyme (UniProt A0A097IUE6); chain TKRAMMATVSSLGIDKATGITKPSKVHRNLPYPEVFEHEQKNKEGEVTKNGTFCVSTGAFTGRSPKDKYFVHQSPSCDTLDWGKINVGVAPDVYKNIYEKAVKHYNENVDSMYVFDGYCGTSPKSRKNVRIITELAWQHHFAKNMFIRPDSEKEVENFNPDFTIINACKVLNKDYKELGLNSDVAVIFNVEEKMAVITGTWYGGEMKKGIFSMMNYWLPLDGIMAMHCSANKGKGGDTALFFGLSGTGKTTLSADPDRYLIGDDEHGWDDHGIFNFEGGCYAKTVNLSKDNEPEIYDAIKRDALLENVIIKSDGEPDYTDTSRTENTRVSYPIYHIDNHEPSGMGGHPTSIIFLTCDAFGVLPPVSRLSGGQAMYHFLSGYTAKVAGTERGVTEPTPNFSACFGAAFLTLHPTKYADLLQKKLDKHQTQCFLINTGWTGGGYGVGKRMSIKATRACVNAVLDGSINKANFTNDEVFGFEVPAELPEVPAQVLNPRAAWSDKEKYDNTRIKLAGMFKDNFKKFIKEGATDYSSYGPK

| Molecule | substrate | setting | Vmax |
| --- | --- | --- | --- |
| B1 (enzyme) | C[C@@H]1O[C@@H](Oc2ccc([N+](=O)[O-])cc2)[C@@H](O)[C@H](O)[C@@H]1O | pH 5, 40 °C | 2.49 µmol/min |
| CYP2E1 (Homo sapiens, UniProt P05181) | O=[N+]([O-])c1ccc(O)cc1 | pH 7.4, 37 °C | 0.00188 µmol/min/mg |
| enzyme (Sargassum horneri, UniProt A0A097IUG6) | C=C(OP(=O)(O)O)C(=O)O | pH 6.5, 25 °C, together with: 2 mM ADP | 39.2 µmol/min/mg |
| gdh N192L/N97F (Bacillus subtilis) | NC(=O)c1ccc[n+]([C@@H]2O[C@H](COP(=O)(O)OP(=O)(O)OC[C@H]3O[C@@H](n4cnc5c(N)ncnc54)[C@H](O)[C@@H]3O)[C@@H](O)[C@H]2O)c1 | pH 7, 50 °C | 323 µmol/min/mg |
| B2 (UGT1A6) | O=c1cc(C(F)(F)F)c2ccc(O)cc2o1 | 37 °C, not purified | 0.0133 µmol/min/mg |
| gdh N97F (Bacillus subtilis) | NC(=O)c1ccc[n+]([C@@H]2O[C@H](COP(=O)(O)OP(=O)(O)OC[C@H]3O[C@@H](n4cnc5c(N)ncnc54)[C@H](O)[C@@H]3O)[C@@H](O)[C@H]2O)c1 | pH 8, 55 °C | 495 µmol/min/mg |
| B3 (enzyme C74S) | O=[N+]([O-])c1ccc(OP(=O)(O)O)cc1 | pH 7, 37 °C, together with: Ni2+ 0.25 mM | 0.137 µmol/min/mg |
| enzyme (UniProt A0A097IUD8) | C=C(OP(=O)(O)O)C(=O)O | pH 6, 25 °C, together with: 2 mM ADP | 32 µmol/min/mg |
| enzyme (Trypanosoma brucei, UniProt Q9GV41) | NC(=O)C1=CN([C@@H]2O[C@H](COP(=O)(O)OP(=O)(O)OC[C@H]3O[C@@H](n4cnc5c(N)ncnc54)[C@H](OP(=O)(O)O)[C@@H]3O)[C@@H](O)[C@H]2O)C=CC1 | pH 7, 37 °C, cofactor varied | 1.5 µmol/min/mg |
| B4 (enzyme) | O=C(O)[C@H](O)CO | pH 7.8, 30 °C | 28.9 µmol/min/mg |
| B5 (enzyme) | O=C(O)CC(=O)C(=O)O | pH 7.5, 25 °C | 63.8 µmol/min/mg |
| UGT1A1 (Homo sapiens, UniProt P22309) | C[C@]12CC[C@@H]3c4ccc(O)cc4CC[C@H]3[C@@H]1CC[C@@H]2O | 37 °C, not purified | 7.4e-05 µmol/min/mg |
| enzyme (Arabidopsis thaliana, UniProt O80970) | Nc1nc2c(ncn2[C@@H]2O[C@H](COP(=O)(O)OP(=O)(O)OP(=O)(O)O)[C@@H](O)[C@H]2O)c(=O)[nH]1 | pH 7.5, 30 °C | 3.07 µmol/min |
| UGT2B4 (Homo sapiens, UniProt P06133) | CC(C)=CCc1cc2c(cc1O)O[C@H](c1ccc(O)cc1)CC2=O | pH 7.4 | 0.000428 µmol/min/mg |
| enzyme (Ectocarpus siliculosus, UniProt D7FYY3) | C=C(OP(=O)(O)O)C(=O)O | pH 5.5, 25 °C, together with: 2 mM ADP | 16.8 µmol/min/mg |
| gdh E198G/N192S/N97F (Bacillus subtilis) | NC(=O)c1ccc[n+]([C@@H]2O[C@H](COP(=O)(O)OP(=O)(O)OC[C@H]3O[C@@H](n4cnc5c(N)ncnc54)[C@H](O)[C@@H]3O)[C@@H](O)[C@H]2O)c1 | pH 7, 50 °C | 422 µmol/min/mg |
| RPT3 (Arabidopsis thaliana, UniProt Q9FMF5) | Nc1nc2c(ncn2[C@@H]2O[C@H](COP(=O)(O)OP(=O)(O)OP(=O)(O)O)[C@@H](O)[C@H]2O)c(=O)[nH]1 | pH 7.5, 30 °C | 3.36 µmol/min |
